# Experimental data collected from several papers.
# Every numbered part comes from another study and shows a few of its results, in no order.
# Sequence of UniProt Q84WU6 (whole entry, looked up): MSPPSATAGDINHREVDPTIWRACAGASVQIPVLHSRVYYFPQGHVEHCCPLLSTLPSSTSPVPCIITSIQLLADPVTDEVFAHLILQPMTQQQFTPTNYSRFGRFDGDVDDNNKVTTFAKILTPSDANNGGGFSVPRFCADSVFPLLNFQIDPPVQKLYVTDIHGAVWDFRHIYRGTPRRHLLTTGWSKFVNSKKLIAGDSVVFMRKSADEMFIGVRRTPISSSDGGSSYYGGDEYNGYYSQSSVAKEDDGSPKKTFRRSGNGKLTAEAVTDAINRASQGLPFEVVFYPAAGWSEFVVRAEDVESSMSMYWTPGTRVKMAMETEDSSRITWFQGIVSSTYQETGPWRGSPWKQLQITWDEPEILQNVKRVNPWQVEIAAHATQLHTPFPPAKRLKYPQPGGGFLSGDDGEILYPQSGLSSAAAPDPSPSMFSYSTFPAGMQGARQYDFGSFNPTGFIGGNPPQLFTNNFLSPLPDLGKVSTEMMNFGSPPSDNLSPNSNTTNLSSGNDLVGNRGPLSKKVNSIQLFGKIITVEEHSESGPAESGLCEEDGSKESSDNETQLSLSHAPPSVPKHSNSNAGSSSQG
# Sequence of UniProt P93024 (whole entry, looked up): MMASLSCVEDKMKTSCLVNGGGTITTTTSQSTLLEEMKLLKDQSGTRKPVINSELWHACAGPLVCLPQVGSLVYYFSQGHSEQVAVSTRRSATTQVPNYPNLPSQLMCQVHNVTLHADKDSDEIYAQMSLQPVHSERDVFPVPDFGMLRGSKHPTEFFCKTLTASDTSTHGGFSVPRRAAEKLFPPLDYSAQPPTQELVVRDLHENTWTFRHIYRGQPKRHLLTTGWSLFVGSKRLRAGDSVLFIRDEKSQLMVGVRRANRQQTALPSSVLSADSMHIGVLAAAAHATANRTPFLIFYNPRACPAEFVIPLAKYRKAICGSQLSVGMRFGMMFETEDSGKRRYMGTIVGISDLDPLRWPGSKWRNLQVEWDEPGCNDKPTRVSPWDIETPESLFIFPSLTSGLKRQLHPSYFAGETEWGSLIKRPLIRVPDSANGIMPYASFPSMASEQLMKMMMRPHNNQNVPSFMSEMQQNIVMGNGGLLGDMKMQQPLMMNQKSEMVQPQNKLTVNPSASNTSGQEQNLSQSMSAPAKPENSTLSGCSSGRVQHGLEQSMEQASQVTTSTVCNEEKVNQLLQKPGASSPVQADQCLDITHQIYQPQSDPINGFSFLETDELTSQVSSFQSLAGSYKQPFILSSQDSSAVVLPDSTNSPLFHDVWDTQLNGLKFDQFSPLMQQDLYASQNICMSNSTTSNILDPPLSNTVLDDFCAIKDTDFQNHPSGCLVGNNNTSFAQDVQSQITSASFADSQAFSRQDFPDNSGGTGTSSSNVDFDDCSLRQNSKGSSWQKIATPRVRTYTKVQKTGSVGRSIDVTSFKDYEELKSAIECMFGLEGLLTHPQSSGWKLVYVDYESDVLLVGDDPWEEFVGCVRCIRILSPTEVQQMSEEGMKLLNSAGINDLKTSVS
# Sequence of UniProt Q8RYC6 (whole entry, looked up): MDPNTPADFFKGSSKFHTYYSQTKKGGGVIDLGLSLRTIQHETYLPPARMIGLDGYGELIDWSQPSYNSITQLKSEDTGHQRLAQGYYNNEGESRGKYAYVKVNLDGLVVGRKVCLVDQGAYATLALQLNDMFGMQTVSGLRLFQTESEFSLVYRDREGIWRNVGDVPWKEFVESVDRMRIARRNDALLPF
# Sequence of UniProt Q38830 (whole entry, looked up): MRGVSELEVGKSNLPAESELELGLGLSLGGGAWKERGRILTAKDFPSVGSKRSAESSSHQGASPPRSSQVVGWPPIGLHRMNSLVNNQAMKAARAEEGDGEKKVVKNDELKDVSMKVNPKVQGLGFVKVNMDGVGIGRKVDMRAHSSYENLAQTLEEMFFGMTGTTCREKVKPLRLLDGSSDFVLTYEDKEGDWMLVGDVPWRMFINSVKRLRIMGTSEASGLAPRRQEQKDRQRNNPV
# Sequence of UniProt Q9ZTX8 (whole entry, looked up): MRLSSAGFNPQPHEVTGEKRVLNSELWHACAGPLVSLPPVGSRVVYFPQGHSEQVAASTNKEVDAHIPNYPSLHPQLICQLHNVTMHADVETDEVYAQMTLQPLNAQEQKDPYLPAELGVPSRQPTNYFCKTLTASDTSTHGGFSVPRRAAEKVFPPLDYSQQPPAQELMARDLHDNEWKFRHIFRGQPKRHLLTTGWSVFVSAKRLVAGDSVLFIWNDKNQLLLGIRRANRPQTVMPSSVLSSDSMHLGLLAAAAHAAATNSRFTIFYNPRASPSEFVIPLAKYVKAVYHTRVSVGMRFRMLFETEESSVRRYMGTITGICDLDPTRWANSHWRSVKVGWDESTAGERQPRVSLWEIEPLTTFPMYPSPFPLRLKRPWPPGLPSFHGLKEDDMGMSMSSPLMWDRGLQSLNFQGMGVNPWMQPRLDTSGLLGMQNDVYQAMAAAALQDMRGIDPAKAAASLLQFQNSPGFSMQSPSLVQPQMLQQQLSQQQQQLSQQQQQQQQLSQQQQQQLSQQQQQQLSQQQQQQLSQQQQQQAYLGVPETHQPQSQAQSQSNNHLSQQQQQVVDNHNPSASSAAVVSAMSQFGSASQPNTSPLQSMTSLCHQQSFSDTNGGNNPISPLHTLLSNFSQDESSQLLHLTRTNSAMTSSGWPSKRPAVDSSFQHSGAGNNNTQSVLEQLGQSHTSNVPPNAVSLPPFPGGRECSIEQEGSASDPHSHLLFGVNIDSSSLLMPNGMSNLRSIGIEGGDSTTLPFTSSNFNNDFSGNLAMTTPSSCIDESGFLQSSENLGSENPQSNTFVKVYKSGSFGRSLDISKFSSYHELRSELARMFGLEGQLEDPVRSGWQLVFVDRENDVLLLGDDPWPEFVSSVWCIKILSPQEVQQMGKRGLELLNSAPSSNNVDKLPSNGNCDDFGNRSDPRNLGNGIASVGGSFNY
# Sequence of UniProt P29376 (whole entry, looked up): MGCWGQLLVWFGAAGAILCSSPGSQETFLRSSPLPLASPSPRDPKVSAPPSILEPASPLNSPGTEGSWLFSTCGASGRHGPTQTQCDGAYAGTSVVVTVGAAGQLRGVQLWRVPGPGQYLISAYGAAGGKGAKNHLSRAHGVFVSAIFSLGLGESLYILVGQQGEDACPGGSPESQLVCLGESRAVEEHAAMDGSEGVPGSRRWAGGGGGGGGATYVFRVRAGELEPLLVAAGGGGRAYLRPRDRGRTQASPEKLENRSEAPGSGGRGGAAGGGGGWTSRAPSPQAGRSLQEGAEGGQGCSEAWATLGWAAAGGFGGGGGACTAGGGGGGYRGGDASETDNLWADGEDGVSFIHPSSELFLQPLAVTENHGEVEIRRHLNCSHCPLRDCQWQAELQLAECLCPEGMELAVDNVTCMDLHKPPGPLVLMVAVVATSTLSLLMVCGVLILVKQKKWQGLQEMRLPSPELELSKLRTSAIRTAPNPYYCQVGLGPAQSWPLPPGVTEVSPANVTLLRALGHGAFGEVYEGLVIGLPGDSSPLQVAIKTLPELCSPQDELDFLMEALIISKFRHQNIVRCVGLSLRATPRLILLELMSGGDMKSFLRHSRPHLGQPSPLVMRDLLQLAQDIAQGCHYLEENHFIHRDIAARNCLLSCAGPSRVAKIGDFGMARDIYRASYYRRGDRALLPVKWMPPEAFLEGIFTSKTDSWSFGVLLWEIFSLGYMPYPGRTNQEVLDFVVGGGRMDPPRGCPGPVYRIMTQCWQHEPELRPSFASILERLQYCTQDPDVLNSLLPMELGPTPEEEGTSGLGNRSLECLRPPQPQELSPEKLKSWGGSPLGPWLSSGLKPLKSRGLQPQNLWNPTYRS
# Sequence of UniProt O14730 (whole entry, looked up): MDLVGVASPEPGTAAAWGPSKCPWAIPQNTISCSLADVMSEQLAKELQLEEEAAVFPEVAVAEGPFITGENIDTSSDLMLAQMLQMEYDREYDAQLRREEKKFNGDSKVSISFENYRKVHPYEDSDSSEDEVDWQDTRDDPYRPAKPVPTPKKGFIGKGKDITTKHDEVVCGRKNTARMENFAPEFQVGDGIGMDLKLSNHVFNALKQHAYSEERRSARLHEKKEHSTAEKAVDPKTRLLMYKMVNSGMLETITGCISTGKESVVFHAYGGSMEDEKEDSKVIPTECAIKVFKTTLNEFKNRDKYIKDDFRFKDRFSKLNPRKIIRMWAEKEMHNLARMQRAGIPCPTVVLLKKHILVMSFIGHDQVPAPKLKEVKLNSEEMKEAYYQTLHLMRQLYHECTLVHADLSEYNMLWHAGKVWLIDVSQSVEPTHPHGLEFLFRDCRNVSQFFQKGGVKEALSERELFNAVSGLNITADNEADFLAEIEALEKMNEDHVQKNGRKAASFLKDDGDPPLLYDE
# Sequence of UniProt P78356 (whole entry, looked up): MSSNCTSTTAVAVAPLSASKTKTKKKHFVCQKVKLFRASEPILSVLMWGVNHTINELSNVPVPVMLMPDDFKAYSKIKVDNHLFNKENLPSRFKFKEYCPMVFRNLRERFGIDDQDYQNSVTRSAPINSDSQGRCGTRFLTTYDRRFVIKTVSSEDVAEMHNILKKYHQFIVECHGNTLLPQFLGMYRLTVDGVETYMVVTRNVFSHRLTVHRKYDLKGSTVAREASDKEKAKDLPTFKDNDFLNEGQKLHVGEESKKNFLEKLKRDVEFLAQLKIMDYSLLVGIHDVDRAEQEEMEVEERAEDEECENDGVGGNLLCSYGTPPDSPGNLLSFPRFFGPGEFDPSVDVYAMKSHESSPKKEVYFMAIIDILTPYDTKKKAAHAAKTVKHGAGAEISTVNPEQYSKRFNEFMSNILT

# Series 1 — observed: enzyme activity; mode: inhibitor; concentration: 0.5 µM; reference: control
# Target: Cyclin-dependent kinase 1, with cyclin A (CDK1, Homo sapiens, UniProt P06493)
# Sequence of UniProt P06493 (whole entry, looked up): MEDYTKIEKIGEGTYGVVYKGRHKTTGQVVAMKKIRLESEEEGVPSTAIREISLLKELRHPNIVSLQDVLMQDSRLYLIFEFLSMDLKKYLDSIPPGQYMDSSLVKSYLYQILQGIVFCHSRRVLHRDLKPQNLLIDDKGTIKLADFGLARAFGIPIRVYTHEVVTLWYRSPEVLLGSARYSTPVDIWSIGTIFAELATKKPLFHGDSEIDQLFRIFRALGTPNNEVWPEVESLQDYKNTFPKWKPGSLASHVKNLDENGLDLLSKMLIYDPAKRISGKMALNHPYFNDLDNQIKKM
Structure (SMILES),remaining activity [%]
CCOC(=O)c1c(C)[nH]c(/C=C2\C(=O)Nc3ccccc32)c1C,96.3
Cc1ccc(Nc2nccc(N(C)c3ccc4c(C)n(C)nc4c3)n2)cc1S(N)(=O)=O,96.2
O=C(Nc1cccc(Nc2cc(Nc3cccc(C(F)(F)F)c3)ncn2)c1)C1CC1,97.9
CO[C@H]1C[C@@H]2CC[C@@H](C)[C@@](O)(O2)C(=O)C(=O)N2CCCC[C@H]2C(=O)O[C@H]([C@H](C)C[C@@H]2CC[C@@H](O)[C@H](OC)C2)CC(=O)[C@H](C)/C=C(\C)[C@@H](O)[C@@H](OC)C(=O)[C@H](C)C[C@H](C)/C=C/C=C/C=C/1C,91.9
Nc1ncnc2n[nH]c(Nc3ccc(F)cc3)c12,93
COc1cc2ncnc(Nc3ccc(Oc4ccccc4)cc3)c2cc1OC,92.2
COc1ccc(OC)c2c(=S)c3ccccc3[nH]c12,96.2
NCCNc1ncc(C(N)=O)c(Nc2cccc(C(F)(F)F)c2)n1,88.3
COc1ccc(C(=O)Nc2sc3c(c2C(N)=O)CCCC3)cc1OC,105
Cc1ccc(NC(=O)c2ccc(CN3CCN(C)CC3)cc2)cc1Nc1nc(-c2cccnc2)cs1,98
N#CC(C#N)=C(N)/C(C#N)=C/c1ccc(O)cc1,90.6
O=C1NC(=O)C(c2cn(CCCO)c3ncccc23)=C1c1cnccn1,91.8
Oc1ccc(-c2nc(-c3ccncc3)c(-c3ccc(F)cc3)[nH]2)cc1,90.9
Nc1[nH]nc2nc3ccccc3nc12,95.3
O=S(=O)(c1cccc2cnccc12)N1CCCNCC1,98.6
Cn1c2ccccc2c2c3c(c4c5ccccc5n(CCC#N)c4c21)CNC3=O,55.5
OCC(O)CCON=C1C(c2c(O)[nH]c3ccccc23)=Nc2ccccc21 (stereo not drawn),56.7
O=C1NC(=O)C(c2cn(CCCn3ccnc3)c3ccccc23)=C1Nc1ccccc1,88.9
Cc1cccc(-c2[nH]c(C(C)(C)C)nc2-c2ccc3c(c2)OCO3)n1,96.7
CNC(=O)c1cc(Oc2ccc(NC(=O)Nc3ccc(Cl)c(C(F)(F)F)c3)cc2)ccn1,100
Cc1nc(-c2ccccc2)c(-c2ccncc2)o1,94.7
COc1cc2ncnc(Nc3ccc(F)c(Cl)c3)c2cc1OCCCN1CCOCC1,101
COc1cc2nccc(Oc3ccc(NC(=S)NC(=O)c4ccccc4C)cc3)c2cc1OC,91.6
O=C(O)c1ccc2c3c1cccc3c(=O)n1c3ccccc3nc21,78.1
C#Cc1cccc(Nc2ncnc3cc(OCCOC)c(OCCOC)cc23)c1,99.6

# Series 2 — method: RNA Bind-n-Seq; molecule type: RNA; sample: in vitro; concentration: not given; reference: input RNA pool; direction: higher = stronger binding
# Target: RING finger protein unkempt homolog, zinc fingers 1-6, GST-SBP tag (UNK, Homo sapiens, UniProt Q9C0B0, residues 30-357)
# Notes: RNA with constant flanks, human and mouse sites, ends assumed
# All sequences stand within: GGGAGUUCUACAGUCCGACGAUC … CAACAGAGGAUUGAGCAUCA
# Residues (chain): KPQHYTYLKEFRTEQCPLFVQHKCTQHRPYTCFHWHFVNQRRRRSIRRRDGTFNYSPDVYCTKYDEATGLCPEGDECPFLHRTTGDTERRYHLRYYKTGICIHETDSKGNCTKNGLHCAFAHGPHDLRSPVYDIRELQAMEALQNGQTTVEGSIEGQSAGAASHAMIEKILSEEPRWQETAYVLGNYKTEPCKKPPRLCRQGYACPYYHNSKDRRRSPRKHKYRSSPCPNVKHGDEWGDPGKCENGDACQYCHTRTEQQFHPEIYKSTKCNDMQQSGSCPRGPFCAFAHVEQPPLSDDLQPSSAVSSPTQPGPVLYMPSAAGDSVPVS
Sequence,bound/input enrichment
CUCACUGAUCACCACAUCUGUGAGAUCAACGGACAGAACGUCAUUGGCUUGAAGGAUGCUCAGAUUGCAGAUAUACUGUCAACAGCUGGGACUGUGGUUACCAUCACAAUCAUGCCUACU,0.0771 ratio
GAGAAUCCAUAUGACCUUGAUGCUUGGAGCAUUCUCAUUCGAGAGGCACAGAAUCAACCUAUAGACAAAGCACGGAAGACUUAUGAACGCCUUGUUGCCCAGUUCCCCAGUUCUGGCAGA,0.469 ratio
AGGGAGCCACGUGCCCCGCCCCACCCGCUCGGGUGAAGCCCAGUGGGAUUUGCAUCUUUCUUUCUCUUUGGUUCCUGCACAUUUAUGGGCUGGGAGGCAUCCGUGUGGAAUUGCGUGCAG,0.256 ratio
GGAACACAGCAGAGGGUGUGUAAUAAAAUACAGAUUGGAAAGAAGACUGAUGAAGAAAAAUAACAGCAUGAUUCAGGCACACCAUUGAGUUCUUUGGGAUGCCCGAAAGUGUCUGGUUGG,0.231 ratio
ACCAUGAUGGAGGGUCAACUGAUCUCCGUAGCAGCCAGGGCAAAGUGAAUGACCUCAGAAACUAGGAAUUCUUGCAAAGACACUGCCUAAUAGUGUGAUUUUGAAACCUUGAUACAAAAG,0.442 ratio
UCUGUCAAGAUCAAGAAAAAUAAGGACAACGUGAAGUUUAAAGUUCGAUGCAGCAGAUACCUUUACACCCUGGUCAUCACUGACAAAGAGAAGGCAGAGAAACUGAAGCAGUCCCUGCCC,0.112 ratio
AGGGAUGGCCCCCAAUCCCACCUCUGUUUAUUCUGUAAACUGCAACCUAUAAAUAACCUUUAGCAUUCCUAUUGUAACAAAAUUAAUUUUUAUGAAAUAAAUUAUAUUUCCUAGUCUAAU,256 ratio
GUCCACGGCGUCCCGGCUCCUGGCGACGCCAAGAGGGCGAAGAUGUGGCUGAAGCUGUUUUUCUUGCUCCUGUAUUUCCUGGUCCUGUUCGUCCUGGCCAGGUUUUUUGAGGCCAUUGUG,0.113 ratio

# Series 3 — observed: cell-free assay; method: competition with immobilised ligand; concentration: 1 µM
# Structure (SMILES): CN([C@@H]1CCc2c(CC(=O)O)c3ccccc3n2C1)S(=O)(=O)c1ccc(F)cc1
target,remaining binding
"LTK (Homo sapiens, UniProt P29376)",100%
"RIOK3 (Homo sapiens, UniProt O14730)",100%
"ERBB4 (Homo sapiens, UniProt Q15303)",100%
"PIP4K2B (Homo sapiens, UniProt P78356)",80%
"IKBKE (Homo sapiens, UniProt Q14164)",84%

# Series 4 — Molecule: B1 (IAA2); method: two-hybrid; reference: out of 4 tests; direction: higher = firmer interaction
# B1: IAA2 (Arabidopsis thaliana, UniProt P49678); chain MAYEKVNELNLKDTELCLGLPGRTEKIKEEQEVSCVKSNNKRLFEETRDEEESTPPTKTQIVGWPPVRSSRKNNNSVSYVKVSMDGAPYLRKIDLKTYKNYPELLKALENMFKVMIGEYCEREGYKGSGFVPTYEDKDGDWMLVGDVPWDMFSSSCKRLRIMKGSDAPALDSSL
partner,setting,positive tests
"IAA26 (Arabidopsis thaliana, UniProt Q8LAL2)",,0
"ARF17 (Arabidopsis thaliana, UniProt Q84WU6)",weak activation fusion,0
"ARF5 788-902 (Arabidopsis thaliana, UniProt P93024)",,3
"IAA12 (Arabidopsis thaliana, UniProt Q38830)",,0
"ARF16 570-670 (Arabidopsis thaliana, UniProt Q93YR9)",,0
"ARF6 790-935 (Arabidopsis thaliana, UniProt Q9ZTX8)",,3
"ARF7 1030-1164 (Arabidopsis thaliana, UniProt P93022)",,3
"IAA32 (Arabidopsis thaliana, UniProt Q8RYC6)",,0

# Series 5 — method: protein binding microarray; molecule type: double-stranded DNA, one strand shown; sample: in vitro; concentration: not given; reference: not given; direction: higher = stronger binding
# Target: Histone acetyltransferase KAT6A, winged helix 1, GST fusion (KAT6A, Homo sapiens, UniProt Q92794, residues 1-85)
# Notes: 8-mer, flanks averaged, mean of 2 arrays, mostly near background
# Target sequence (chain): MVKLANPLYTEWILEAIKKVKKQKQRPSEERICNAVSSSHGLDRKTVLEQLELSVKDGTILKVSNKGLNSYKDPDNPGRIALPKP
Sequence,E-score
ACAGGTCA,-0.119
GGCCACAC,0.00159
ACCTGAAG,-0.0396
ACAGTAGA,-0.103
AGTAGCGC,0.376
CAGGGGCC,0.0938
ACGACAGG,-0.0926
AGGTCGCC,0.14

# Excerpt of the above (series 1):
Structure (SMILES),remaining activity [%]
Cc1nc(-c2ccccc2)c(-c2ccncc2)o1,94.7
N#CC(C#N)=C(N)/C(C#N)=C/c1ccc(O)cc1,90.6
COc1ccc(C(=O)Nc2sc3c(c2C(N)=O)CCCC3)cc1OC,105
Nc1[nH]nc2nc3ccccc3nc12,95.3
OCC(O)CCON=C1C(c2c(O)[nH]c3ccccc23)=Nc2ccccc21 (stereo not drawn),56.7
COc1cc2ncnc(Nc3ccc(F)c(Cl)c3)c2cc1OCCCN1CCOCC1,101
Cc1ccc(Nc2nccc(N(C)c3ccc4c(C)n(C)nc4c3)n2)cc1S(N)(=O)=O,96.2
